Results of several laboratories.
± gives the spread as reported.

`CC[C@@H]([C@H](C)O)n1ncn(-c2ccc(N3CCN(c4ccc(OC[C@@H]5CO[C@@](Cn6cncn6)(c6ccc(F)cc6F)C5)cc4)CC3)cc2)c1=O` — result for “stability relative error”: -10.3% (rat plasma; 1600 ng/mL, three freeze-thaw cycles; reference: nominal concentration).
For `O=C(Nc1cnccc1Cl)N1CCN(Cc2ccc3c(c2)OC(F)(F)O3)CC1`, “alanine aminotransferase increased” read 0% (multiple ascending dose; young men; 75 mg, treatment-emergent adverse events).
`CCn1cc(C(=O)N2CCOCC2)c(=O)c2cc(NC3Cc4ccccc4C3)cnc21` gave an AUC(0-12) of 19400 ng·h/mL (human, fed; oral suspension, 600 mg/day twice daily, day 8, arithmetic mean).
For `Cc1ccc([C@@H]2O[C@H](CO)[C@@H](O)[C@H](O)[C@H]2O)cc1Cc1ccc(-c2ccc(F)cc2)s1`, “urinary calcium excretion change” read -19.9 mg (Japanese type 2 diabetes patients; 400 mg, day 16, 24 h urine collection; reference: baseline).
`CN(C)C(=N)N=C(N)N`: “subjects with adverse event” 4.5% (item: dizziness; healthy men; oral, dose not given, 8 days, treatment-emergent, crossover trial).
For `CCN(Cc1ccc(F)cc1)c1ccc(CO)c(Cl)c1`, the GGT was 2.3 U/L (male F344 rat, serum; oral, 100 mg/kg/day, 2 days).
Under “diastolic blood pressure”, `CCN1/C(=C/C(C)=O)Sc2ccc(F)cc21` is recorded as 76 ± 4 mmHg (cynomolgus monkey; oral, 10 mg/kg, 2 h post-dose).
`COc1ncc(-c2nc3c(n2C(C)C)[C@H](c2ccc(Cl)cc2)N(c2cc(Cl)cn(C)c2=O)C3=O)c(OC)n1` has a Cmax of 169 ng/mL (LC-MS/MS; human, plasma; oral, 30 mg, cycle 1 day 8, low-dose arm).
Under “treatment-emergent adverse events”, `O=C(Nc1nc2cccc(-c3ccc(CN4CCS(=O)(=O)CC4)cc3)n2n1)C1CC1` is recorded as 0% (item: body temperature increased; human rheumatoid arthritis patients; oral, 150 mg once daily, 4 weeks, regardless of relatedness).
`O=C(O)c1occc1S(=O)(=O)NCc1cc2cc(F)ccc2[nH]1`: “DLS scattered light intensity” 303000 counts/s (colloidal aggregate formation, dynamic light scattering; 50 mM potassium phosphate buffer; 200 µM, pH 7.0, 1% DMSO; higher = more aggregation).
For `NC[C@@]1(CC(=O)O)[C@@H]2CC[C@H]3C[C@@H]2[C@@H]1C3`, “unbound apparent clearance” read 3.34 L/h (human, severe renal impairment, plasma; geometric mean).
`Cc1cc(-c2nccc3c2ccn3CC(=O)Nc2ccc(-c3cnccn3)cn2)ccn1`: “subjects with Photophobia adverse event” 0% (human; 20 mg once daily, multiple ascending dose).
`COc1ccnc(C(=O)NC(CO)C(=O)O)c1O` (racemic): “Freundlich coefficient KF” 6.08 mL/g (soil adsorption; clay soil; pH 7.6, organic carbon 1.7 %).
`Cc1c(C[S+](C)[O-])cccc1NS(=O)(=O)c1cccc(Cl)c1O` (stereo not shown) — result for “DLS scattered light intensity”: 532000 counts/s (colloidal aggregate formation, dynamic light scattering; 50 mM potassium phosphate buffer; 200 µM, pH 7.0, 1% DMSO; higher = more aggregation).
For `O=C1NC(=O)C(Cc2ccc(O)cc2)S1` (stereo not shown), the HC50 was over 128 µg/mL (haemolysis; sheep erythrocytes; 1 h, pH 7.5).
For `CNC(=O)c1ccc(-c2cnc3ncc(Cc4ccc5ncccc5c4)n3n2)cc1F`, “patients with adverse event” read 0% (item: Dyspepsia; hepatocellular carcinoma patients; oral, 600 mg twice daily, expansion cohort, grade 3-4).
Under “DLS scattered light intensity”, `Cc1ccc(-n2nc(Br)cc2C(=O)NCc2nocc2C(=O)O)cc1` is recorded as 404000 counts/s (colloidal aggregate formation, dynamic light scattering; 50 mM potassium phosphate buffer; 200 µM, pH 7.0, 1% DMSO; higher = more aggregation).
Under “change in ALT”, `OC[C@H]1O[C@@H](c2ccc(Cl)c(Cc3ccc(O[C@H]4CCOC4)cc3)c2)[C@H](O)[C@@H](O)[C@@H]1O` is recorded as 1 U/L (Japanese type 1 diabetes patients, blood; 2.5 mg, day 28; reference: baseline).
`Cc1cc(Nc2ccc(S(F)(F)(F)(F)F)cc2)n2nc(C(C)(F)F)nc2n1` — result for “adverse event Diarrhoea”: 23.1% (Plasmodium falciparum malaria patients; oral, 400 mg).
`CC(=O)N(C)[C@H]1CCN(C(=O)c2cnc3c(c2)C[C@](C)(c2ccc(F)cc2)N3)C1` — result for “severe adverse events”: 0% (healthy male subjects, multiple rising dose; oral, 15 mg once daily).
`CCc1ccc(-c2ccc(-c3cc(F)c(F)c(F)c3)c(F)c2)cc1` gave a concentration of 0.81 ng/mL (item: compound; human pregnant women, male fetuses, maternal serum; dose not given, paired maternal-cord samples, mean).
`CN(C(=O)n1cnc(-c2cccnc2)c1)C1CCCCC1` has a concentration of 5.9 ± 0.1 ng/g (Wistar rat, cerebellum; oral, 10 mg/kg of BIA 10-2474, 24 h, single dose).
`CNCc1ccc(-c2[nH]c3cc(F)cc4c3c2CCNC4=O)cc1` gave an asthenia/fatigue incidence of 66.7% (patients; oral, 240 mg twice daily, all grades).
`CNc1ccc(-c2nc3ccc(O)cc3s2)cc1` [carbon-11 labelled] gave an SUV of 0.854 ± 0.267 (microPET/CT imaging; B6SJL mouse, normal, heart; intravenous, 15 min).
`COc1ccc(F)cc1C(=O)NCc1ccc(-c2nn([C@@H](C)C(F)(F)F)c(N)c2C(N)=O)cc1`: “unchanged drug excreted” 14.4% (healthy men, feces; intravenous, 22 µg; reference: dose).
The blood concentration of `O=c1[nH]c(=O)n([C@@H]2O[C@H](CO)[C@@H](O)[C@@H]2F)cc1CCCCC[18F]` is reported as 0.09 ± 0.03 %ID/g (nude mice, RG2 tumour, blood; intravenous, dose not given, 2 h, co-injection).
Under “subjects with Vomiting”, `C[C@H]1CN(C(=O)CC#N)[C@]12CCN(c1ncnc3[nH]ccc13)C2` is recorded as 3.1% (healthy human; oral, dose not given).
`CCN1CCN(C(=O)N[C@@H](C(=O)N[C@@H]2C(=O)N3[C@@H]2SC(C)(C)[C@@H]3C(=O)O)c2ccccc2)C(=O)C1=O`: “deviation from nominal concentration” 1.2% (human whole blood; concentration not given, 8 h, 4 °C).
With `CN(CCC(=O)O)C(=O)c1ccc2c(c1)CC[C@@H]1[C@@H]2CC[C@]2(C)C(c3cncc(F)c3)=CC[C@@H]12` the total bilirubin was 0.8 mg/dL (premenopausal women, endometriosis pain, serum; 60 mg twice daily, visit 4, median).
`COc1cccc(CC(C)NS(=O)(=O)c2c(C)oc(C)c2C(=O)O)c1` (stereo not shown): “DLS scattered light intensity” 558000 counts/s (colloidal aggregate formation, dynamic light scattering; 50 mM potassium phosphate buffer; 200 µM, pH 7.0, 1% DMSO; higher = more aggregation).
`CC[C@H](C)[C@H](NC(=O)[C@H](Cc1ccccc1)NC(=O)[C@H](CCC(=O)O)NC(=O)[C@H](CCCCNC(=O)COCCOCCNC(=O)COCCOCCNC(=O)CC[C@H](NC(=O)CCCCCCCCCCCCCCCCC(=O)O)C(=O)O)NC(=O)[C@H](C)NC(=O)[C@H](C)NC(=O)[C@H](CCC(N)=O)NC(=O)CNC(=O)[C@H](CCC(=O)O)NC(=O)[C@H](CC(C)C)NC(=O)[C@H](Cc1ccc(O)cc1)NC(=O)[C@H](CO)NC(=O)[C@H](CO)NC(=O)[C@@H](NC(=O)[C@H](CC(=O)O)NC(=O)[C@H](CO)NC(=O)[C@@H](NC(=O)[C@H](Cc1ccccc1)NC(=O)[C@@H](NC(=O)CNC(=O)[C@H](CCC(=O)O)NC(=O)C(C)(C)NC(=O)[C@@H](N)Cc1cnc[nH]1)[C@@H](C)O)[C@@H](C)O)C(C)C)C(=O)N[C@@H](C)C(=O)N[C@@H](Cc1c[nH]c2ccccc12)C(=O)N[C@@H](CC(C)C)C(=O)N[C@H](C(=O)N[C@@H](CCCNC(=N)N)C(=O)NCC(=O)N[C@@H](CCCNC(=N)N)C(=O)NCC(=O)O)C(C)C` — result for “placebo-subtracted change in QTcI”: -4.6 ms (QT interval corrected for heart rate, 12-lead Holter ECG; healthy human subjects; subcutaneous, 1.5 mg once weekly, 25 h post-dose, steady state; reference: placebo, time-matched baseline).
`CCN1CCN(Cc2ccc(NC(=O)c3ccc(C)c(NC(=O)c4cncc(-c5cccs5)c4)c3)cc2C(F)(F)F)CC1` has an AUC(0-t) of 4140 ng·h/mL (C57BL/6 mice, epithelial lining fluid; intraperitoneal, 10 mg/kg).
`O=C([O-])CCCCC1(N(CC(=O)[O-])CC(=O)[O-])CN(CC(=O)[O-])CCN(CC(=O)[O-])C1.[Bi+3]` has a formation constant of 338 M⁻¹ (0.15 M NaClO4; 25 °C, protonation of Bi(L)H-1 complex).
For `Fc1ccc([C@@H]2CCNC[C@H]2COc2ccc3c(c2)OCO3)cc1`, the peak-trough fluctuation was 43% (human, CYP2D6 intermediate metabolizers, plasma; oral, 20 mg, steady state).
`COc1ccc([C@@H](O)c2cc(-c3ncnc4cc(N5CCOCC5)ccc34)c(F)cc2Cl)nn1` — result for “asthenia TEAE incidence”: 50% (locally advanced rectal cancer patients; 250 mg, with: capecitabine and radiotherapy).
`O=C(O)CCC(=O)O.[2H]C([2H])([2H])Oc1cc(C)c2[nH]ccc2c1CN1CC[C@@H](C2CC2)C[C@H]1c1ccc(C(=O)O)cc1` — result for “TEAE T wave abnormality”: 0% (ECG; healthy Chinese subjects; oral, 125 mg twice daily, multiple ascending dose).
For `CC(C)c1nc(CN(C)C(=O)N[C@H](C(=O)N[C@@H](Cc2ccccc2)C[C@H](O)[C@H](Cc2ccccc2)NC(=O)OCc2cncs2)C(C)C)cs1`, “lymph node sequestered fraction” read about 1 (Macaca nemestrina; subcutaneous, slow pathway, TLC-ART).
